Experimental data collected from several papers.
Lines come from different studies, so protocols differ. Several values in a cell are separate wells, animals, samples, runs or records. ± marks the error that the study gave.
CSNK1D: Casein kinase I isoform delta (CSNK1D, Homo sapiens, UniProt P48730)
Sequence of UniProt P48730 (whole entry, looked up): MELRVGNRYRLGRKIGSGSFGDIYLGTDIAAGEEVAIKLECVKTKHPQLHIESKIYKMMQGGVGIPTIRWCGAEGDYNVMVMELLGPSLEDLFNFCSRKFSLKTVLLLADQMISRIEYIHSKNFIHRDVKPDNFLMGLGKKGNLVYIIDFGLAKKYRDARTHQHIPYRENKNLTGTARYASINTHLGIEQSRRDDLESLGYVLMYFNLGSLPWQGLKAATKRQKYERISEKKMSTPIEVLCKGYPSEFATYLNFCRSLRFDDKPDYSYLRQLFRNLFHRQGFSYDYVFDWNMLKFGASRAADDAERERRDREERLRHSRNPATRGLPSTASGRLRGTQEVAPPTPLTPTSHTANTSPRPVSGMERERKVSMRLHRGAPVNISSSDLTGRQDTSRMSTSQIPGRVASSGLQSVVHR
CYP2E1: Cytochrome P450 2E1 (CYP2E1, Homo sapiens, UniProt P05181)
Sequence of UniProt P05181 (whole entry, looked up): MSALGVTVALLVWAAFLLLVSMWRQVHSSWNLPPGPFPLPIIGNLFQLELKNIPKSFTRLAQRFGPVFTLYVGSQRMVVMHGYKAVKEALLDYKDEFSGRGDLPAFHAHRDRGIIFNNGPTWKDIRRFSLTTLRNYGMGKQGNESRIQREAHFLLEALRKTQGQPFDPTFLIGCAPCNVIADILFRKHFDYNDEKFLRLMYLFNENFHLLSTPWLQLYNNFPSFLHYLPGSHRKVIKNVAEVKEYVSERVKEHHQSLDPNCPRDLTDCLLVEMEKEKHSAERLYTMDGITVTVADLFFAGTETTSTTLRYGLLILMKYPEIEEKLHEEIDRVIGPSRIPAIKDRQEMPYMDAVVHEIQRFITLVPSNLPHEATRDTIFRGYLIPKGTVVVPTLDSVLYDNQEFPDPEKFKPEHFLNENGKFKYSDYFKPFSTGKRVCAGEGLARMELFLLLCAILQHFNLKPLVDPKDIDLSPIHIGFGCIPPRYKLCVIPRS
PSMB5: Proteasome Macropain subunit MB1 (PSMB5, Homo sapiens, UniProt P28074)
Sequence of UniProt P28074 (whole entry, looked up): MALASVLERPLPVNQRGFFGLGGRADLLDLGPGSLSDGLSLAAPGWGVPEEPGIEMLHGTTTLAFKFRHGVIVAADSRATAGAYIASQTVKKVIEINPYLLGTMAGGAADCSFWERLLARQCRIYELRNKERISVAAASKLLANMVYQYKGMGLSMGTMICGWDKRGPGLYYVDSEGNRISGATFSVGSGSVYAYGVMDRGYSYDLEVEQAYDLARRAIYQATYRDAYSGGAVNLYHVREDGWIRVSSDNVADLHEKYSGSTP
Sequence of UniProt P37231 (whole entry, looked up): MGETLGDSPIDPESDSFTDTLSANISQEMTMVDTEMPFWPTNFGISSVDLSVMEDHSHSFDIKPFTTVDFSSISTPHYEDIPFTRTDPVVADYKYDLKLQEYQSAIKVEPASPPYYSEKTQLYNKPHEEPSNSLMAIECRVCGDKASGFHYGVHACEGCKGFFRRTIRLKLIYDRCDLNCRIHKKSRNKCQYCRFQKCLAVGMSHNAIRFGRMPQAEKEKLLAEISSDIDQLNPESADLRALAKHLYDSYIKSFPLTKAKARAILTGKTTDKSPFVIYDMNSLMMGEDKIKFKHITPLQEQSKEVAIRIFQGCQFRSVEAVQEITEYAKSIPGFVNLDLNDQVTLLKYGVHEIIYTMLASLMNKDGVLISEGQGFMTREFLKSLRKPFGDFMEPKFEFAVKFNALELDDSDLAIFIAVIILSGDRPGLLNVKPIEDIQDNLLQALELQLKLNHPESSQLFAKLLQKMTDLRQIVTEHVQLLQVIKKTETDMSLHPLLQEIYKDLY
Sequence of UniProt P42568 (whole entry, looked up): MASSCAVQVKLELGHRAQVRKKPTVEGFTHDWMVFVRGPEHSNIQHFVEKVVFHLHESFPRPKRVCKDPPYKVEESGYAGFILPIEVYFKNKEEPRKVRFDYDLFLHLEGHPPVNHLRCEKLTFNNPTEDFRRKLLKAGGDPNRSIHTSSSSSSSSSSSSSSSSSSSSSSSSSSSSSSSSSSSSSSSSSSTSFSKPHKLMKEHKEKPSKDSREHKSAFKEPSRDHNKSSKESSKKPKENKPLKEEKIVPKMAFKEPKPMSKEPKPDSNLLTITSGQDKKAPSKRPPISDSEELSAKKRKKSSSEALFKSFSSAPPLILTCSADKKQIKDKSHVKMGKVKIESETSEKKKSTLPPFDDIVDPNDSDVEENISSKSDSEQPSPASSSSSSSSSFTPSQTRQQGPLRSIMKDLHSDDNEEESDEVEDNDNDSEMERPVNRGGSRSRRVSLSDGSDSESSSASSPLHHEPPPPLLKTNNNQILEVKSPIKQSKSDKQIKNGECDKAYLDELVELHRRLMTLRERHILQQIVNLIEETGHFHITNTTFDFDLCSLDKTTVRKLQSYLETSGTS
Sequence of UniProt P14555 (whole entry, looked up): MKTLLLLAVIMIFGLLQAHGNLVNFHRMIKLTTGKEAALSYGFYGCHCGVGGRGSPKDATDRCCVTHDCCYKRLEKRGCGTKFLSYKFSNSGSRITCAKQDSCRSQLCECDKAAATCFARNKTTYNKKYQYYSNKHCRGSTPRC
Sequence of UniProt O96017 (whole entry, looked up): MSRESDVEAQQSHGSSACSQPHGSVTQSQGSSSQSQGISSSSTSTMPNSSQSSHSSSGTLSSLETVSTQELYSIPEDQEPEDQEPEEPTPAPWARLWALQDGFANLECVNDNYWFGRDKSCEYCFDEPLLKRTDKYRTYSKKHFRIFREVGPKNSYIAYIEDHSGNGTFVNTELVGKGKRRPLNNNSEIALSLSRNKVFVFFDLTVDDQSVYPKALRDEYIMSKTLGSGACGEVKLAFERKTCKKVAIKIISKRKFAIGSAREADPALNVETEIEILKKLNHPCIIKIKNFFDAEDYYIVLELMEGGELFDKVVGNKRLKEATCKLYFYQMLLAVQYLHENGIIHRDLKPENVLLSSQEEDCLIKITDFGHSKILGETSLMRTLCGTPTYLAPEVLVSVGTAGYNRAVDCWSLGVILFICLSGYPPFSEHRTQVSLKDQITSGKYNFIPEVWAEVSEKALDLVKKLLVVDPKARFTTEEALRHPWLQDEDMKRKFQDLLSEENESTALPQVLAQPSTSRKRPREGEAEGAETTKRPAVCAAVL
Sequence of UniProt P11388 (whole entry, looked up): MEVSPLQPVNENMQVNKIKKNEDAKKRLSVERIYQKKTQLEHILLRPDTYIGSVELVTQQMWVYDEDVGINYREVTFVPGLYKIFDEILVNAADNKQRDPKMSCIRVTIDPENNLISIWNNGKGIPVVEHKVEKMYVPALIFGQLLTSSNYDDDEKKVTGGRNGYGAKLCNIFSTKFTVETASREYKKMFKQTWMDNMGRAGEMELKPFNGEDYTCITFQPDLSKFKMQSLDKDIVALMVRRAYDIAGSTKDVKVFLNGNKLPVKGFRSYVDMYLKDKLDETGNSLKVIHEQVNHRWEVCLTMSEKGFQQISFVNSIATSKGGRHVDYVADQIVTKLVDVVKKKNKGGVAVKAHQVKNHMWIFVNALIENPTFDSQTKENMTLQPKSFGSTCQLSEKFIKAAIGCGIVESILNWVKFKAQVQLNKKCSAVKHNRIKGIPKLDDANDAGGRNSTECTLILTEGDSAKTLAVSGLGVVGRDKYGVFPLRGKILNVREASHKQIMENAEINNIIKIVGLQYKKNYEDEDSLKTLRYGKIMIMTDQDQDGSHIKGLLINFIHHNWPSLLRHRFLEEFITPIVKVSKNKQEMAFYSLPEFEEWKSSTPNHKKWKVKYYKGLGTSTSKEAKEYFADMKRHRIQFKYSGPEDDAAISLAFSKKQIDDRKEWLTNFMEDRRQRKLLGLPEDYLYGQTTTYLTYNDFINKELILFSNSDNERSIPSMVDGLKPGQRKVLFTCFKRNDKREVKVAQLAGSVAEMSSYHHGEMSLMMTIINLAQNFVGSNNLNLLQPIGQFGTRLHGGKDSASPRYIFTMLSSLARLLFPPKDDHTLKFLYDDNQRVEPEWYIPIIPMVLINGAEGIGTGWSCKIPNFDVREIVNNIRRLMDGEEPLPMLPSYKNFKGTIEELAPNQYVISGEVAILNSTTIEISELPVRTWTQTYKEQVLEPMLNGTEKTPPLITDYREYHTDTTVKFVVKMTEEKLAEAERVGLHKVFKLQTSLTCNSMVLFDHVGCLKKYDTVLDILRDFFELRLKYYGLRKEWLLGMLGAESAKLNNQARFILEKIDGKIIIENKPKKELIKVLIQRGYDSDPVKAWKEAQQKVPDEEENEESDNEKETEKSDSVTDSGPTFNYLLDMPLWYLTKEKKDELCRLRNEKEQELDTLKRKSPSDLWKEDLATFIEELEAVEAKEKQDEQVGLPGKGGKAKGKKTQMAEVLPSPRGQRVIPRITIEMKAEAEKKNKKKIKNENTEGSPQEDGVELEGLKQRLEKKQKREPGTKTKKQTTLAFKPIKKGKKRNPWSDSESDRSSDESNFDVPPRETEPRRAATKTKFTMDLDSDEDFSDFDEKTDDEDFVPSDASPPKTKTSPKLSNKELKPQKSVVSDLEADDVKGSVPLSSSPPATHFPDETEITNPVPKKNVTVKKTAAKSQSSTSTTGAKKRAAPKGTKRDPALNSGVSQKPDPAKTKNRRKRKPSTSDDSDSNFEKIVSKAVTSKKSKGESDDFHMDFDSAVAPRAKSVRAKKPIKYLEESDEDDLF
Sequence of UniProt P00383 (whole entry, looked up): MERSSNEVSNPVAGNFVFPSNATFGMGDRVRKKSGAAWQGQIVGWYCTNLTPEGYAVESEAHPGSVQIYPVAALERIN
Sequence of UniProt P28076 (whole entry, looked up): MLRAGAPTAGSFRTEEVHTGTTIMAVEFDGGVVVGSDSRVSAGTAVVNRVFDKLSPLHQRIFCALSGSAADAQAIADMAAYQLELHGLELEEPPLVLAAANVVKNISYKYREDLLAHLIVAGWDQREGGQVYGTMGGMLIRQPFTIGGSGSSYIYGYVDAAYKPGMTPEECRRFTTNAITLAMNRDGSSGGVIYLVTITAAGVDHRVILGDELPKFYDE

Structure (SMILES) | tested on | test | test system | setting | endpoint | value
O=C(Nc1ccc(OCCF)cc1)c1cc([N+](=O)[O-])ccc1Cl | Peroxisome proliferator-activated receptor gamma, with RXR (PPARG, Homo sapiens, UniProt P37231) | reporter gene, antagonist, PPRE-TK-luciferase | transfected HepG2 | 24 h, together with: GW1929 | IC50 | 0.06 µM and 0.0631 µM
COc1cccc2c(N3CCC(CCP(=O)(O)O)CC3)ncnc12 | Ectonucleotide pyrophosphatase/phosphodiesterase family member 3 (Homo sapiens, UniProt O14638, E275D) | cGAMP hydrolysis, inhibitor, cGAMP luciferase | – | overnight, together with: cGAMP 2 µM | IC50 | 0.13 µM
Fc1ccc(-c2nc(-c3ccccc3Br)[nH]c2-c2ccncc2)cc1 | CSNK1D | inhibitor | – | – | IC50 | 0.0132 ± 0.0026 µM
CCN(CC)C(=O)c1ccc2nc(-c3ccc(OC)c(Br)c3)[nH]c2c1 | Dihydrofolate reductase type 2 (Escherichia coli, UniProt P00383) | enzyme activity | – | pH 7 | IC50 | > 160 µM
CN(C)c1ccc(C(=O)NCCCCCC(=O)NO)cc1 | HBL-1 | – | – | 0.5 µM, 120 h | viability | 134%
COCC(=O)N1CCC[C@H](C(=O)NCc2nc(-c3ccccc3)cs2)C1 | uncharacterized protein (Plasmodium falciparum, UniProt A0A5K1K7U1+Q8I261+Q8IJT1) | Suc-LLVY-AMC | – | together with: WLW-vs 0.5 µM | IC50 | 0.49 ± 0.41 µM
CC(C)C[C@H](NC(=O)[C@H](CCc1ccccc1)NC(=O)CN1CCOCC1)C(=O)N[C@@H](Cc1ccccc1)C(=O)N[C@@H](CC(C)C)C(=O)[C@@]1(C)CO1 | Proteasome subunit beta type-9 (Mus musculus, UniProt P28076) | proteasome subunit activity | Ba/F3 BCR-ABL1 M351T | 1 h pulse | IC50 | 0.147 ± 0.0266 µM
O=c1oc2c(O)c(O)cc3c(=O)oc4c(O)c(O)cc1c4c23 | HBL-1 | – | – | 0.5 µM, 120 h | viability | 98.6%
CCc1oc2ccccc2c1C(=O)c1ccc(O)cc1 | CYP2E1 | p-nitrophenol hydroxylation, inhibitor | baculosomes | 10 min, with additive 1 µM | IC50 | 4.6 µM
CC(C)C[C@H](NC(=O)[C@H](CC(C)C)NC(=O)[C@H](Cc1ccccc1)NC(=O)CN=[N+]=[N-])C(=O)N[C@H](/C=C/S(C)(=O)=O)Cc1ccc(CN)cc1 | PSMB5 | competitive ABPP | Raji cell lysate | – | IC50 | 1.14 µM
Fc1ccc(-c2nc(-c3ccc4c(c3)OCO4)[nH]c2-c2ccncc2)cc1 | CSNK1D | inhibitor | – | – | IC50 | 0.555 ± 0.148 µM
Cc1ncc(C(=O)N[C@@H](CC2CCC3CCCCC3C2)C(=O)N[C@@H](CC(C)C)C(=O)N[C@H](/C=C/S(C)(=O)=O)Cc2ccc(CN)cc2)s1 (some centres unmarked) | PSMB5 | competitive ABPP | Raji cell lysate | – | IC50 | 1.94 µM
CC[C@@H]1[C@H](F)C(=O)N[C@@H]1COc1nccc2cc(C(N)=O)c(OC)cc12 | CHEK2 (Homo sapiens, UniProt O96017) | ATP-site probe binding, ActivX profiling | THP-1 cell lysate | Lys1 site | IC50 | 3.5 µM
C=CC(O)CO (centres unmarked) | CYP2E1 | 4-nitrophenol hydroxylation, inhibitor | pooled human liver microsomes | 30 min, pH 7.4, zinc absent, together with: 4-nitrophenol 50 µM | IC50 | 3400 µM
CC1CC(C)CN(c2ccc(C=NNc3nc(-c4ccc(Br)cc4)cs3)cc2)C1 (centres unmarked) | alpha-glucosidase | enzyme activity, inhibitor | – | together with: p-nitrophenyl-alpha-D-glucopyranoside | IC50 | 28.9 µM
Cc1nc(CSc2nc(SCc3ccc(C(C)C)cc3)nc(=O)[nH]2)cs1 | TOP2A (Homo sapiens, UniProt P11388) | decatenation, inhibitor | – | – | IC50 | 34.4 µM
COc1cc(NC(=O)Nc2ccc(C)c(F)c2)cc2sc(NC(=O)c3ccccc3)nc12 | RET (Homo sapiens, UniProt P07949) | kinase activity, inhibitor | – | replicate three, together with: 1 µM ATP, poly(Glu,Tyr) | IC50 | 7.87 µM
CC(C)c1ccc(Nc2ccc3ncc(OCC4CCNCC4)nc3c2)cc1 | Protein AF-9, with DOT1L (Homo sapiens, UniProt P42568) | DOT1L binding, AlphaLISA | – | – | IC50 | 9.4 µM
N=C(N)c1ccc(CNC(=O)c2cnn(Cc3ccccc3)c2)cc1 | Plasminogen (PLG, Homo sapiens, UniProt P00747) | – | – | – | IC50 | 5.7 µM
COc1cc(NCC(=O)Nn2c(C)nc3ccc(Cl)cc3c2=O)cc(OC)c1OC | Phospholipase A2, membrane associated (Homo sapiens, UniProt P14555) | enzyme activity, inhibitor, colorimetric | – | – | IC50 | 69.3 ± 2.83 µM

For quick reference, copied from above:
Structure (SMILES) | tested on | test | test system | setting | endpoint | value
O=C(Nc1ccc(OCCF)cc1)c1cc([N+](=O)[O-])ccc1Cl | Peroxisome proliferator-activated receptor gamma, with RXR (PPARG, Homo sapiens, UniProt P37231) | reporter gene, antagonist, PPRE-TK-luciferase | transfected HepG2 | 24 h, together with: GW1929 | IC50 | 0.06 µM and 0.0631 µM
COCC(=O)N1CCC[C@H](C(=O)NCc2nc(-c3ccccc3)cs2)C1 | uncharacterized protein (Plasmodium falciparum, UniProt A0A5K1K7U1+Q8I261+Q8IJT1) | Suc-LLVY-AMC | – | together with: WLW-vs 0.5 µM | IC50 | 0.49 ± 0.41 µM
